Measured values gathered from unrelated publications.
Compare with care: the assays were run in different laboratories.
Organism: Escherichia coli

| SMILES | test | system | setting | MIC |
| --- | --- | --- | --- | --- |
| CCCCCCCCCCCCCCCCCCCCCCSCC1OC(OC2C(N)CC(N)C(OC3OC(CN)C(O)CC3N)C2O)C(O)C(N)C1O (stereo not shown) | – | MC1061 | – | > 150 µg/mL |
| CC[C@H](C)[C@H](NC(=O)[C@@H](Cc1ccccc1)NC)C(=O)OC[C@H](N)C(=O)N[C@H](CCC(N)=O)C(=O)N[C@@H](C(=O)N[C@H](C(=O)OC[C@H](N)C(=O)N[C@H]1C(=O)N[C@@H](C)C(=O)N[C@@H](C2CCCCC2)C(=O)N[C@@H]([C@@H](C)CC)C(=O)O[C@H]1C)[C@@H](C)CC)[C@@H](C)CC | broth microdilution | ATCC 10798, Mueller-Hinton broth | 16 h, 37 °C | > 8 µg/mL |
| CCCCCCCCCCCCCCCCSCC1OC(OC2C(N)CC(N)C(OC3OC(CN)C(O)CC3N)C2O)C(O)C(N)C1O (stereo not shown) | – | BL21(DE3) | – | 18.8 µg/mL |
| CC[C@H](C)[C@H](NC(=O)[C@H](CC(C)C)NC(=O)[C@H](CCC(N)=O)NC(=O)[C@H](CO)NC(=O)[C@H](CCCNC(=N)N)NC(=O)[C@@H](N)CO)C(=O)N[C@H](C(=O)N[C@@H](Cc1c[nH]cn1)C(=O)N[C@@H](CCC(N)=O)C(=O)N[C@@H](CCCNC(=N)N)C(=O)N[C@@H](CC(C)C)C(=O)N[C@@H](Cc1ccccc1)C(N)=O)C(C)C | broth microdilution | Mueller Hinton broth | – | > 400 µg/mL |
| CN[C@H](CC(C)C)C(=O)N[C@H]1C(=O)N[C@@H](CC(N)=O)C(=O)N[C@H]2C(=O)N[C@H]3C(=O)N[C@H](C(=O)N[C@H](C(=O)O)c4cc(O)cc(O)c4-c4cc3ccc4O)[C@H](O)c3ccc(c(Cl)c3)Oc3cc2cc(c3O[C@@H]2O[C@H](CO)[C@@H](O)[C@H](O)[C@H]2O[C@H]2C[C@](C)(NCc3ccc(OCc4cn(CCOCCOCCOCCC(=O)N[C@H](C(=O)N[C@@H](CCN)C(=O)N[C@H]5CCNC(=O)[C@H]([C@@H](C)O)NC(=O)[C@H](CCN)NC(=O)[C@H](CCN)NC(=O)[C@H](CC(C)C)NC(=O)[C@@H](CC(C)C)NC(=O)[C@H](CCN)NC5=O)[C@@H](C)O)nn4)c(OC)c3)[C@H](O)[C@H](C)O2)Oc2ccc(cc2Cl)[C@H]1O | broth microdilution | ATCC 25922 | 18 to 20 h, 37 °C, 0.002% polysorbate 80 | 32 µg/mL |
| C=CCOC(=O)c1ccc(NC(=O)c2ccc(NC(=O)c3ccc(NC(=O)C(CC(N)=O)NC(=O)c4ccc(NC(=O)c5ccc([N+](=O)[O-])cc5)cc4)cc3)c(OC(C)C)c2OCC=C)cc1 (stereo not shown) | – | K12 ΔtolC | – | > 64 µg/mL |
| Cc1cc(N)c2cc(NC(=O)c3ccc4c(-c5ccccc5O)cccc4c3)ccc2n1 | – | BW25113 wild type | – | 50 µM |
| CCCCCCCCC(CCCCCC)C(=O)N[C@@H](CCCCN)C(=O)N[C@@H](CCCCN)C(=O)N[C@@H](CCCCN)C(=O)N[C@@H](CCCCN)C(=O)N[C@@H](CCCCN)C(N)=O (stereo partly shown) | broth microdilution | K12 | 16-24 h, 37 °C, prepared at pH 7 | 16 µg/mL |
| CCCCCCCCCCCCCCCC(=O)NCCCC[C@H](N)C(=O)N[C@@H](CCCCN)C(=O)N[C@@H](CCCCN)C(=O)N[C@@H](CCCCN)C(=O)N[C@@H](CCCCN)C(=O)N[C@@H](CCCCN)C(N)=O | broth microdilution | K12, water pH 7 | 18 h, 37 °C | 16 µg/mL |
| NC(=O)Nc1nc2cc(Br)ccc2[nH]c1=O | microbial growth, broth dilution | DC2 | 20 h | > 128 µg/mL |
| C=CCCC[C@@H]1NC(=O)[C@H](CC(C)C)NC(=O)[C@H](C)NC(=O)[C@H](NC(=O)[C@H](CO)NC(=O)[C@@H](CCCCN)NC(=O)[C@@H](CCCC=C)NC(=O)[C@@H](N)Cc2ccccc2)[C@H](C)OC1=O | – | ATCC 10798 | TFA salt | 32 µg/mL |
| C[C@H](N)[C@@H](CCCCCCCCCCCCCCC(=O)CCCCCCC[C@@H](O)[C@@H](C)N)O[C@@H]1O[C@H](CO)[C@H](O)[C@H](O)[C@H]1O | microbial growth, resazurin | ATCC10536 | 6 h | 10.9 µM |
| Cc1cccc(-c2nc(Nc3ccncn3)c3c(C)csc3n2)n1 | broth microdilution | 3 | – | > 64 µM |
| OB(O)c1ccc(OCc2ccccc2)nc1F | bacterial growth | CTX-M-14 ESBL clinical isolate | cefotaxime alone | 64 µg/mL |
| CCCCCCCCCCCC[S+]([O-])CC1OC(OC2C(N)CC(N)C(OC3OC(CN)C(O)CC3N)C2O)C(O)C(N)C1O (mixture of isomers) | – | MC1061 | – | 18.8 µg/mL |
| Cc1cc(N)c2cc(NC(=O)c3ccc4cc(C5CC5)ccc4c3)ccc2n1 | – | BW25113 wild type | – | 200 µM |
| CC[C@H](C)[C@H](N)C1=N[C@H](C(=O)N[C@@H](CC(C)C)C(=O)N[C@H](CCC(=O)O)C(=O)N[C@H](C(=O)N[C@H]2CCCCNC(=O)[C@H](CC(N)=O)NC(=O)[C@@H](CC(=O)O)NC(=O)[C@H](Cc3c[nH]cn3)NC(=O)[C@@H](CC(C)C)NC(=O)[C@H]([C@@H](C)CC)NC(=O)[C@@H](CCCN)NC2=O)[C@@H](C)CC)CS1 | broth microdilution | ATCC 25922, LB medium | 18 h, 37 °C, together with: ZnSO4 0.3 mM | > 64 µg/mL |
| CC(C)C[C@H](NC(=O)[C@H](CC(C)C)NC(=O)[C@H](CCCCN)NC(=O)[C@@H]1CCCN1C(=O)[C@H](CC(C)C)NC(=O)[C@H](CC(C)C)NC(=O)[C@H](CCCCN)NC(=O)[C@H](CC(C)C)NC(=O)[C@H](CC(C)C)NC(=O)[C@H](CO)NC(=O)CNC(=O)[C@H](Cc1ccccc1)NC(=O)[C@@H](N)Cc1ccccc1)C(N)=O | broth microdilution | K12 | – | 12.5 µM |
| CC[C@H](C)[C@H](NC(=O)[C@H](CO)NC(=O)[C@H](CO)NC(=O)[C@H](Cc1ccccc1)NC(=O)CN)C(=O)N[C@@H](Cc1ccccc1)C(=O)N[C@@H](CCCNC(=N)N)C(N)=O | – | ATCC 8739 | together with: 0.5 mM KCl | > 128 µM |
| CCO[C@H]1[C@H](O)[C@@H](N)[C@@H](O[C@H]2[C@H](O[C@@H]3O[C@H](CO)[C@@H](O[C@H]4O[C@@H](CN)[C@@H](O)[C@H](O)[C@H]4N)[C@H]3O)[C@@H](O)[C@H](N)C[C@@H]2N)O[C@@H]1CO | broth microdilution | clinical isolate AG 001 | – | 64 µg/mL |
| CCCCCCCCCCCCCCC(=O)N[C@@H](CCCCN)C(=O)N[C@@H](CCCCN)C(=O)N[C@@H](CCCCN)C(=O)N[C@@H](CCCCN)C(N)=O | broth microdilution | K12, water pH 7 | 18 h, 37 °C | 16 µg/mL |
| CC[C@H](C)[C@H](NC(=O)[C@@H](NC(=O)[C@H](CCCCN)NC(=O)[C@H](CC(=O)O)NC(=O)[C@H](CCCCN)NC(=O)[C@H](Cc1ccccc1)NC(=O)[C@H](Cc1ccccc1)NC(=O)[C@H](CO)NC(=O)[C@H](CCCCN)NC(=O)[C@H](CCSC)NC(=O)[C@H](CCCCN)NC(=O)[C@H](CCCCN)NC(=O)[C@H](Cc1c[nH]c2ccccc12)NC(=O)[C@@H](N)Cc1ccccc1)C(C)C)C(=O)N1CCC[C@H]1C(=O)N[C@@H](CCCCN)C(=O)N[C@H](C(=O)N[C@@H](CCC(N)=O)C(=O)N[C@@H](CCC(N)=O)C(=O)N[C@@H](C)C(=O)N[C@@H](Cc1ccc(O)cc1)C(=O)N[C@@H](CO)C(=O)N[C@@H](CC(C)C)C(=O)N[C@@H](Cc1ccc(O)cc1)C(=O)N[C@@H](CC(N)=O)C(=O)N[C@@H](CCCCN)C(=O)N[C@@H](CC(C)C)C(=O)N[C@@H](CCC(N)=O)C(=O)N[C@@H](Cc1c[nH]cn1)C(=O)N[C@@H](CCCCN)C(=O)N[C@@H](CC(C)C)C(N)=O)C(C)C | broth microdilution | ATCC 35218 | – | 1.56 µM |
| CC[C@H](C)[C@H](NC(=O)[C@@H]1CC(=O)N[C@@H](CO)C(=O)N[C@@H](CC(C)C)C(=O)NCC(=O)N[C@@H](CO)C(=O)N[C@@H](CO)C(=O)N2CCC[C@H]2C(=O)N[C@@H](Cc2ccc(O)cc2)C(=O)N[C@@H](CC(N)=O)C(=O)N1)C(=O)N[C@@H](CC(C)C)C(=O)NCC(=O)N[C@@H](Cc1ccc(O)cc1)C(=O)N1CCC[C@H]1C(=O)N[C@@H](C)C(=O)N[C@@H](CC(C)C)C(=O)N[C@H](C(=O)N[C@H](C(=O)N[C@H](C(=O)N[C@@H](Cc1ccc(O)cc1)C(=O)N1CCC[C@H]1C(=O)O)[C@@H](C)CC)C(C)C)[C@@H](C)CC | – | – | – | > 128 µg/mL |
| CC(C)[C@@H]1NC(=O)[C@@H]2CCCN2C(=O)[C@@H](C)NC(=O)[C@H](CO)NC(=O)[C@H](C)NC(=O)[C@H](C(C)(C)C)NC(=O)[C@H](CCO)NC(=O)[C@H](Cc2c[nH]c3ccccc23)NC(=O)[C@H](CCO)NC(=O)[C@@H](CCN)NC(=O)[C@H](CCC(N)=O)NC(=O)[C@H](CCN)NC(=O)[C@H](Cc2ccc(O)cc2)NC(=O)[C@H]([C@@H](C)O)NC1=O | broth microdilution | NDM-1, CAMHB with polysorbate-80 | 16 h | > 64 µg/mL |
| CC(C)[C@H](NC(=O)[C@H]1NC(=O)[C@H](CO)NC(=O)[C@H](CC(N)=O)NC(=O)[C@@H](N)Cc2c[nH]c3cc(ccc23)C1C(N)=O)C(=O)N[C@H]1Cc2cn(cn2)C(c2ccc(O)cc2)[C@@H](C(=O)N[C@@H](CCCNC(=N)N)C(=O)N[C@@H](Cc2ccccc2)C(=O)O)NC(=O)[C@H](CO)NC1=O (stereo partly shown) | – | ATCC 25922 | – | 8 µg/mL |

A few entries again:
| SMILES | test | system | setting | MIC |
| --- | --- | --- | --- | --- |
| CC(C)C[C@H](NC(=O)[C@H](CC(C)C)NC(=O)[C@H](CCCCN)NC(=O)[C@@H]1CCCN1C(=O)[C@H](CC(C)C)NC(=O)[C@H](CC(C)C)NC(=O)[C@H](CCCCN)NC(=O)[C@H](CC(C)C)NC(=O)[C@H](CC(C)C)NC(=O)[C@H](CO)NC(=O)CNC(=O)[C@H](Cc1ccccc1)NC(=O)[C@@H](N)Cc1ccccc1)C(N)=O | broth microdilution | K12 | – | 12.5 µM |
| CC[C@H](C)[C@H](NC(=O)[C@H](CO)NC(=O)[C@H](CO)NC(=O)[C@H](Cc1ccccc1)NC(=O)CN)C(=O)N[C@@H](Cc1ccccc1)C(=O)N[C@@H](CCCNC(=N)N)C(N)=O | – | ATCC 8739 | together with: 0.5 mM KCl | > 128 µM |
| CCO[C@H]1[C@H](O)[C@@H](N)[C@@H](O[C@H]2[C@H](O[C@@H]3O[C@H](CO)[C@@H](O[C@H]4O[C@@H](CN)[C@@H](O)[C@H](O)[C@H]4N)[C@H]3O)[C@@H](O)[C@H](N)C[C@@H]2N)O[C@@H]1CO | broth microdilution | clinical isolate AG 001 | – | 64 µg/mL |
